Experimental data collected from several papers.
Lines come from different studies, so protocols differ. ± gives the spread as reported.
Organism: Salmonella enterica

Under “inhibition zone diameter”, CCOC(=O)C1=C(C)NC2=C(C(=O)CC(C)(C)C2)C1c1ccc(OCC(=O)NN=Cc2cc(Br)c(O)c(Br)c2)cc1OCC(=O)NN=Cc1cc(Br)c(O)c(Br)c1 (centres unmarked) is recorded as 4.3 ± 0.2 mm (ATCC 13311; concentration not given, 24 h, 37 °C).
CCCCCCSCC1OC(OC2C(N)CC(N)C(OC3OC(CN)C(O)CC3N)C2O)C(O)C(N)C1O (centres unmarked) gave an MIC of greater than 150 µg/mL (ATCC 14028).
With CNC1=C([N+](=O)[O-])C2(C(=O)Nc3ccc([N+](=O)[O-])cc32)C2=C(CCCC2=O)O1 (centres unmarked) the inhibition was 62.4% (microbial growth; TYPHIMURIUM; 250 µg/mL, 24 h).
For CCCCCCCCCCCC[S+]([O-])CC1OC(OC2C(N)CC(N)C(OC3OC(CN)C(O)CC3N)C2O)C(O)C(N)C1O (mixture of isomers), the MIC was greater than 150 µg/mL (ATCC 14028).
With N#Cc1ccc2cccc(O)c2n1 the MIC was greater than 1500 µM (microbial growth, agar dilution; ENTERITIDIS).
With CNC1=C([N+](=O)[O-])C2(C(=O)Nc3ccc(Cl)cc32)C2=C(O1)C(=O)c1ccccc1C2=O (centres unmarked) the inhibition was 100% (microbial growth; TYPHIMURIUM; 250 µg/mL, 24 h).
With Oc1c(Cl)cc(Cl)c2cccnc12 the MIC was 37.4 µM (microbial growth, agar dilution; ENTERITIDIS).
For CCOC(=O)C1=C(C)NC2=C(C(=O)CC(C)(C)C2)C1c1ccc(OCC(=O)NN=Cc2cccc([N+](=O)[O-])c2)cc1OCC(=O)NN=Cc1cccc([N+](=O)[O-])c1 (centres unmarked), “inhibition zone diameter” read 3 ± 0.1 mm (ATCC 13311; concentration not given, 24 h, 37 °C).

Excerpt of the above:
For CCCCCCCCCCCC[S+]([O-])CC1OC(OC2C(N)CC(N)C(OC3OC(CN)C(O)CC3N)C2O)C(O)C(N)C1O (mixture of isomers), the MIC was greater than 150 µg/mL (ATCC 14028).
